Published values from different studies.
Parts stem from different laboratories: compare values within a part only. Positions count from the first letter of the parent shown.

Study 1 — target: CEBPD, bZIP domain (human); method: DHFR protein complementation; medium: yeast; relative to: wild-type JUN-FOS pair; reading: higher = stronger binding
Setting: single substitutions, most at no-binding floor
Starting sequence: JUN, bZIP domain (human); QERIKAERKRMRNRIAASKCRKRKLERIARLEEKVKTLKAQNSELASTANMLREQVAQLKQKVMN; partner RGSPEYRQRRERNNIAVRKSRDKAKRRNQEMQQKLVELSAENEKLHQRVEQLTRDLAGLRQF
For `L38N`, the binding fitness was -1.49 natural log.
For `M51W`, the binding fitness was -1.42 natural log.
`E33A` has a binding fitness of -1.42 natural log.
The binding fitness of `A46W` is reported as -1.39 natural log.
With `N42S` the binding fitness was -1.44 natural log.
For `A29L`, the binding fitness was -1.44 natural log.
For `I28G`, the binding fitness was -1.3 natural log.
With `Q41V` the binding fitness was -1.43 natural log.
The binding fitness of `E44C` is reported as -1.53 natural log.

Study 2 — method: RNA Bind-n-Seq; molecule type: RNA; medium: in vitro; tested at: 200 nM; setting: whole 134-nt RNA, ends assumed; added: 150 mM KCl; relative to: input library; reading: higher = stronger binding
Target: Ras GTPase-activating protein-binding protein 1, full length (G3BP1, Homo sapiens, UniProt Q13283)
UniProt Q13283, sequence (whole entry, looked up): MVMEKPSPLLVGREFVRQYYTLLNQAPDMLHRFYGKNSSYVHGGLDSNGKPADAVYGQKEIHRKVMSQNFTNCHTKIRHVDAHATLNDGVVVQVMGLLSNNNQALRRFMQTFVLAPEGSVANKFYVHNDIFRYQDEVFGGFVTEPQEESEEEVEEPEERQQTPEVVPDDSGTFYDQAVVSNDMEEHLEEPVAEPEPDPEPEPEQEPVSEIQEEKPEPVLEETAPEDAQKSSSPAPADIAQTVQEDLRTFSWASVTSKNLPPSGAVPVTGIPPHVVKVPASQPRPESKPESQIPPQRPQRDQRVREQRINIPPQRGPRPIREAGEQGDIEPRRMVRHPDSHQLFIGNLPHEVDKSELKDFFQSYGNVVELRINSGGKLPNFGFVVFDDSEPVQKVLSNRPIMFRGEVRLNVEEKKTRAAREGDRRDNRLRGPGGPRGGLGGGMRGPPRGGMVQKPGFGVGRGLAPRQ
All sequences stand within: GGGAGUUCUACAGUCCGACGAUC … UGGAAUUCUCGGGUGUCAAGG
The log2 enrichment of `UCAAGUCCUGUGCUACACAUCGUAUGUACCGAAUCGGUUUGGGUUUGGGGUUUGGAAAGUAUUAUGUUACGCCGUUCGGAUCUGCACUUC` is reported as -0.775.
`ACCAUGCAGGUGGGCAUCUUUGGGACGUGGGGCAAGGGGGGGAUAGGGAGGGGGGUAACACUUUGGGAACAGGUGGUCCCAGGUCGUUUC` has a log2 enrichment of 1.25.
`ACCAGGCAGGUGGGCAUCUUUGGGAAGUGGGGCAAGGGGGGGAUAGGGAGGGGGGUAACACUUUGGGAACAGGUGGUCCCAGGUCGUUUC` gave a log2 enrichment of 1.32.
The log2 enrichment of `CAAGUCCUGUGCUACACAUCGUAUGUACCGAAUCGGGAGGGAAAAAAAGGGAGGGAAAGUAUUAUGUUACGCCGUUCGGAUCUGCACUUC` is reported as 0.602.
The log2 enrichment of `GUCCUGUGCUACACAUCGUAUGUACCGAAUCGGGGCCCCCGGGCCCCCGGGCCCCCGGAAAGUAUUAUGUUACGCCGUUCGGAUCUGCAC` is reported as -0.713.
For `CCUCAAGUCCUGUGCUACACAUCGUAUGUACCGAAUCGGGUUGGGUUGGUUGGAAAGUAUUAUGUUACGCCGUUCGGAUCUGCACUUCCA`, the log2 enrichment was 0.232.
For `UCCUCAAGUCCUGUGCUACACAUCGUAUGUACCGAAUCGGAGGUGGAAAGGAAAGUAUUAUGUUACGCCGUUCGGAUCUGCACUUCCAGC`, the log2 enrichment was -0.824.
`UCGGACGCCGCCAACCUGCACGAGUUCCACGCGGACCUGCGCUCAUGCUUUGCACCCCAGCACAUGGCCAUGCUGUGUAGCCCCAUCCUC` has a log2 enrichment of 0.761.
The log2 enrichment of `UCAAGUCCUGUGCUACACAUCGUAUGUACCGAAUCGGUUGGGUUGGGGUUGGGGAAAGUAUUAUGUUACGCCGUUCGGAUCUGCACUUCC` is reported as 0.635.
For `CCUGUGCUACACAUCGUAUGUACCGAAUCAAAUUUUUUUAAACCCCCCCAAACCCCCAAAAAAGUAUUAUGUUACGCCGUUCGGAUCUGC`, the log2 enrichment was -0.0529.
For `AGUCCUGUGCUACACAUCGUAUGUACCGAAUCGGGGUUUUUGGGGUGGGGUUUGGGGAAAGUAUUAUGUUACGCCGUUCGGAUCUGCACU`, the log2 enrichment was 0.38.
`UCAAGUCCUGUGCUACACAUCGUAUGUACCGAAUCGGGUUUGGUUUGGUUUGGGAAAGUAUUAUGUUACGCCGUUCGGAUCUGCACUUCC` gave a log2 enrichment of -0.774.
The log2 enrichment of `CUCAAGUCCUGUGCUACACAUCGUAUGUACCGAAUCGGGCCGGCCGGGGCCGGGAAAGUAUUAUGUUACGCCGUUCGGAUCUGCACUUCC` is reported as -0.451.
`CUCCUGGAGUGGAUCCGGCGCACCAUCCCCUGGCUGGAGGACCGUGUGCCCCAAAAGACUAUCCAGGAGAUGCAGCAGAAGCUGGAGGAC` has a log2 enrichment of -1.2.

Study 3 — target: CCNA2, cyclin fold, Cln2 fusion (human); method: yeast growth competition, sequencing; medium: yeast; setting: strong parent motif; relative to: not given; reading: higher = stronger binding
Starting sequence: WEE1 docking peptide (human); HKTFRKLRLFDTP
For `K2Y`, “normalised enrichment score” read 1.42.
Under “normalised enrichment score”, `T12K` is recorded as 1.6.
Under “normalised enrichment score”, `T3S` is recorded as -0.458.
For `R5G`, “normalised enrichment score” read 0.675.
`R8F`: “normalised enrichment score” 1.44.
Under “normalised enrichment score”, `K2P` is recorded as 1.17.
Under “normalised enrichment score”, `T3K` is recorded as 0.441.
`R5A`: “normalised enrichment score” -0.846.
Under “normalised enrichment score”, `R5W` is recorded as 1.77.
Under “normalised enrichment score”, `K6C` is recorded as 1.14.
Under “normalised enrichment score”, `L9E` is recorded as 0.784.
Under “normalised enrichment score”, `F4W` is recorded as 2.32.
`K2G` — result for “normalised enrichment score”: 1.89.
`D11A` — result for “normalised enrichment score”: 1.3.
`R5M` — result for “normalised enrichment score”: 1.94.
`R5A L7A` — result for “normalised enrichment score”: 1.75.
`T3A` — result for “normalised enrichment score”: 1.26.
Under “normalised enrichment score”, `K6Q` is recorded as 1.27.
Under “normalised enrichment score”, `L9M` is recorded as 1.15.
Under “normalised enrichment score”, `D11H` is recorded as -0.0303.
Under “normalised enrichment score”, `F4Q` is recorded as 0.813.
Under “normalised enrichment score”, `K2Q` is recorded as 1.43.
Under “normalised enrichment score”, `F4P` is recorded as 1.31.
`R8A` — result for “normalised enrichment score”: 1.24.
`R5T`: “normalised enrichment score” 1.37.

Study 4 — method: protein-binding microarray; molecule type: double-stranded DNA, one strand shown; medium: in vitro; tested at: 940 nM top; setting: 60-bp whole probe; added: salmon DNA 0.4 mg/ml; relative to: random background probes; reading: higher = stronger binding; all sequences stand within: GCCTAGCAC … GTCTTGATTCGCTTGACGCTGCTG
Target: Interferon regulatory factor 5, full length, phosphomimetic (IRF5, Homo sapiens, UniProt Q13568-2, residues 1-514, S451D/S453D/S456D/S462D)
`TTCCCTCCCTAATTCTGATTGTGCTAG`: “fitted relative affinity” 0.983 z-score.
Under “fitted relative affinity”, `TTAGATCTCAGTATCGTTTAGTGCTAG` is recorded as 2.72 z-score.
Under “fitted relative affinity”, `GACGGTATCTGGTATCGGGACGTGCTA` is recorded as 3 z-score.
`TTAGGTATCGACTTTCGGTGAGTGCTA` — result for “fitted relative affinity”: 5.75 z-score.
`GACGATCTCATACTGGAGACGTGCTAG` — result for “fitted relative affinity”: 0.0503 z-score.
`GACGGTTTCGGTCTAGGGACGTGCTAG` — result for “fitted relative affinity”: 13.9 z-score.
Under “fitted relative affinity”, `TTAGGTTTCGGTATCTGTTAGTGCTAG` is recorded as 14.2 z-score.
For `ACTAGTGTTTTTCTCCTATTGTGCTAG`, “fitted relative affinity” read 0.899 z-score.
`GACGGTCTCCTTTTCCTGGCGTGCTAG`: “fitted relative affinity” 1.21 z-score.
Under “fitted relative affinity”, `TTAGGACTGCTTTTCCGTTAGTGCTAG` is recorded as -0.29 z-score.
`TCATCTTTGCAGATAAAACTGTGCTAG` — result for “fitted relative affinity”: -0.0171 z-score.
`GACGGTCTCTGACTGGGGACGTGCTAG`: “fitted relative affinity” -0.245 z-score.
Under “fitted relative affinity”, `TTACGACTGGACTATCGGTTAGTGCTA` is recorded as 0.393 z-score.
`TTAGGTCTCGGAGTGGGTTAGTGCTAG`: “fitted relative affinity” 0.765 z-score.
For `TTAGGTCTCCTTCTTCTTTAGTGCTAG`, “fitted relative affinity” read 0.79 z-score.
`GACGATTTCTGTTCCGAGACGTGCTAG` — result for “fitted relative affinity”: 1.26 z-score.

Repeated from above (study 3):
Under “normalised enrichment score”, `L9E` is recorded as 0.784.
Under “normalised enrichment score”, `F4W` is recorded as 2.32.
`K2G` — result for “normalised enrichment score”: 1.89.
`D11A` — result for “normalised enrichment score”: 1.3.
`R5M` — result for “normalised enrichment score”: 1.94.
`R5A L7A` — result for “normalised enrichment score”: 1.75.
